Measurements gathered from unrelated publications.
Parts stem from different laboratories: compare values within a part only.

Series 1 — method: competition protein-binding microarray; form: double-stranded DNA, one strand shown; sample: in vitro; tested at: 2 µM; together with: Pho4 competitor, 0.05 µM; direction: higher = stronger binding; constant ends, left off below: … GTCTTGATTCGCTTGACGCTGCTG
Target: Centromere-binding protein 1, full length, His-tagged (CBF1, Saccharomyces cerevisiae, UniProt P17106, residues 1-351)
Chain of UniProt P17106 (whole entry, looked up): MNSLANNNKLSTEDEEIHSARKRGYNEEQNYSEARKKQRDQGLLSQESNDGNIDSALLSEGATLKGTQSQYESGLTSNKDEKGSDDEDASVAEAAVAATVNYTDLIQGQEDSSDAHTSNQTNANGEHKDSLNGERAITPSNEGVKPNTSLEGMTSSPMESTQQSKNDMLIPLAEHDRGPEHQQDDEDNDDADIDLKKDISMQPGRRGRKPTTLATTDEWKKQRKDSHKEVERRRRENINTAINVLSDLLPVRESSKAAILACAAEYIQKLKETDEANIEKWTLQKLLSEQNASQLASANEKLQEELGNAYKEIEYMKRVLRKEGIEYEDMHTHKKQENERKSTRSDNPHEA
Setting: whole 60-bp probe, lowest competitor level
Sequence	fluorescence intensity [a.u.]
TCAAGGCAAACGGGACATGTGGGGAGTTCGACTTTT	64.7
CTAACGAAGGTTTGGAGAGTGGGTGACAAGCCAAGT	56.9
GTCTTGTCTCATTAACACGTGTTTTTCCCCACTTCA	1720
CTTCTGTAAATTTTCCACGTGTTTTGACGCGCCCCG	737
CGTCCTAGTGATTGTCACTGGACTTCCATGAGGAAG	109
CTAACGAAGGTTTGTTATGTGGGTGACAAGCCAAGT	73.7
GCATAAGGAGTGGCCCATGTGTGCCAAAACTCTTCT	78.3
CCTTCCACATTGCGTACCGTGACGGTGGCGGAATTT	89
TGCAAGAGAAAAAGTTGCGTGCGATACTGCCTAGGA	71.3
TCCGTACTACTGGCGTACGTGCGATGAATTAATCGG	70.2
AAATTACTAAGTTGCCCGGTGGGTGACGCCGTATGA	53.3
GATGATGTGCTTGTCATCGTGGGTAACTTCACCAGC	74.5
AAAGCGGTAATTTGGCAGGTGGGTGCAGATATCTAT	90.7
TGTATTGATTTTTAGAACGTGAAAAGGATAAACTGA	117
CACTCGGCCATGAGGCACATGCAAACAAACGCTGCA	157
GGTGTCTCTGTCAGCCCCGTGGTCGCCAGCACAGAA	134
CGACCATTTTATCGGCACGCTTCCGCAAGTTGGTTC	101
AAATTACTAAGTTGTCACAGAACTTACCCCGTATGA	108
CGTCCTAGTGATTTTCACGTGAACTCCATGAGGAAG	969

Series 2 — method: protein binding microarray; form: double-stranded DNA, one strand shown; sample: in vitro; tested at: not given; reference: not given; direction: higher = stronger binding
Target: Histone acetyltransferase KAT6A, both winged helices, GST fusion (KAT6A, Homo sapiens, UniProt Q92794, residues 1-181)
Setting: 8-mer, flanks averaged, mean of 2 arrays, mostly near background
Residues (chain): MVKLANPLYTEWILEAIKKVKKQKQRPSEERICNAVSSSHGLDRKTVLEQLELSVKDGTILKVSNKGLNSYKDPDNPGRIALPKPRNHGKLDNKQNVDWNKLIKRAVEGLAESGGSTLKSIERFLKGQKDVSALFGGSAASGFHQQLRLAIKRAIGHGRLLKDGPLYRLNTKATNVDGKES
Sequence	E-score
GAAGCCTC	-0.116
CTTTCCAC	-0.04
AACAGTGG	-0.223
ACACACCT	0.0692
GGTGTAAA	-0.112
ACTGCCGC	0.274
GCCGAGAC	0.164
ACTGGGGC	-0.165
GACTTAGA	-0.163
AAGTGGAC	-0.136
ACATGTAA	0.00458
CCTACGCA	-0.0513
ACGACGAA	-0.0979
ATTGAGCA	-0.111
ACCGGAGG	0.0663
ACTTAATC	-0.136
ATGCCTTC	-0.256
AAGGTAAA	-0.106
AGGAAACT	-0.244
TATGGTAA	0.0455

Series 3 — method: RNA Bind-n-Seq; form: RNA; sample: in vitro; tested at: 365 nM; reference: no-protein control; direction: higher = stronger binding
Target: RNA binding protein fox-1 homolog 2, RRM domain, GST-SBP tag (RBFOX2, Homo sapiens, UniProt O43251-10, residues 100-194)
Setting: natural RNA segment, single round, ends assumed
Constant ends, left off below: GGGAGUUCUACAGUCCGACGAUC … UGGAAUUCUCGGGUGCCAA
Construct (chain): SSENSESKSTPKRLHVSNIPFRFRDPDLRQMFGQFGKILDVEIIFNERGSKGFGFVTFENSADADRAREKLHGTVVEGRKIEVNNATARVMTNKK
Sequence	RBNS enrichment (R)
GUAGCAUGAUUUUCCUUGGGAUGCAAAUCUUAAAACAGUCCUUUAAUAUGAACCAACAAUCUGGAGCACACCGAAGGGCAAUCUAAAUUGUGGCUUGAAGGACUGCACUA	1.26
AGUCUGGAGUAUCGCUCCGUUCCCUGGCAGAAGGUUCCAGCCAGGAGGAUGUGCUGAAGAUGGUCUGGUCCUAACUGCCAGACACAAUGUCCGUGACAUUAAAGGCUCCA	0.432
UGCUUCAUCACCACUUCCAUCUUGCAUCACCUUAUAACUGUUCUGUCUUGUUCUCUCCCAGCAAUUUAUUUUAAAACAAGGGCUAGCUUCAAGCAUGACUGUUAAUGGCU	1.64
GGGGCCAGCAGAAAGAAGACAGGCUGUCCAGGCCGCACCCGCUGCAGUGGGGCACCAGCCGGCCACACCCAUUGCCUCGGCUGCCUCUUCAUAGACUCUUGCUGCCCAGC	0.438
UUCCUCUUUGUGUAGGUUUCAGCCACAAAACUGUCAUUCACUCUAGGGGACCCCUACUAAAGGGUAACUUCAGGUGUGCAGCCCUGAGCUCCAAGGCUCUGCACCAUGCC	0.483
AUAGCCUAAGUGUGUAACAGGCUAUAUACAUAUCAUCAGGGUCUGUGUAAGUAUACUCUGUGAUGUUCAUACAGUGAUGAAAUCACCCAAAGACACAUUUCUCAGAACGU	0.579
CCCUUCUUACCCGAGUGCCUCCUGCUUCCUCCGAGGCCCAGGGGGACUCAUAUCCAAUGGCUCCUAAGUGUUUGUCCUGUGCAAUAUACAGCCCAGGGAGGGAAGGGAAG	0.219
UAUUUCCAGCGUUAGAUUGAGGAUGAGGUAGGGAGGUGAUCCAGAGAAGGCGGAGAAGGAAGAAGUAACCUCUGAGUGGCGGCUAUUGCUUCUGUUCCAGGUGCUGUUCG	0.792

Series 4 — method: RNA Bind-n-Seq; form: RNA; sample: in vitro; tested at: 100 nM; reference: input RNA pool; direction: higher = stronger binding
Target: RING finger protein unkempt homolog, zinc fingers 1-6, SBP tag (UNK, Homo sapiens, UniProt Q9C0B0, residues 30-357)
Chain of UniProt Q9C0B0 (30-357, looked up): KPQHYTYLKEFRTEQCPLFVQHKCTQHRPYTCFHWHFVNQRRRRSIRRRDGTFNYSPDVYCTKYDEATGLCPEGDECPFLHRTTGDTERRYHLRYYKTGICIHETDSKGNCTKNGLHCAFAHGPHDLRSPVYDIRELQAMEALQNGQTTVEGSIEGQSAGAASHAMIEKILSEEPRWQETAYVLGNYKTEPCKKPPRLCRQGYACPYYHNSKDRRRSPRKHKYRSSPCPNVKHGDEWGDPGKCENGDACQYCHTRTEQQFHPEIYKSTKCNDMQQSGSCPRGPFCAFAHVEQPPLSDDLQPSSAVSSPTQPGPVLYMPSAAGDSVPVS
Setting: RNA with constant flanks, vertebrate orthologous sites, ends assumed
Constant ends, left off below: GGGAGUUCUACAGUCCGACGAUC … CAACAGAGGAUUGAGCAUCA
Sequence	bound/input enrichment [ratio]
UGGGUUACUCCUAUUAUUAUCAAGUAGCUGGAAUUGUGAAGGUCGGAGUAGUUAGAUCUUUAGCUUUUAUUCCUUAUUUUUUUUGUAUUACUCUCCAUGUGUAUAAAUUAUUGAUCAUGU	5.07
AGCCUCCCUUCUGCCCCAAAAAUAGAACUUUUUAAAAUUGUGUUGCCACUUCUAAAAAUUUAGCAAUAUUCAAAUAAAACACUAAUGAAGUAAGAAAUUUUGCUCGAUGUGUUGCAAACC	2.38
UGUCUAGCUUCCAAACUUUGGCUGUUGGUAUUAGAGGCAGAUUUUCUUCUCGAGUCUCUCCUGCCUUGGAUGGGCCUCAAUAGGAGUGGACUGUGAAACUGCACCCAGCUUGUUCUCAUU	0.202
UGGUUUUUAAAAAUUUAUUGAGCGUAGCUUUGUGCUAAAGCUUAUGUAGACUUAAAAAAAUUCAUGGAUUGGUUCUUUGUUGUGUUGUUCUCAUUGAAAAUAAAAAGAACUUUGAAUCUC	0.222
GCACUGCCCAUGCAGAUUGCACAACACUGAAUGCAAAGUCAUAAUUUUCAUAGUCACAGUAAGGUAGCUUUAGGGCAAUAUCACCAUGGUUUUUCUCAUGUGCAGUUUUUUAAAAUGUAC	0.624
GUCAUCUGACUGGAUGAAGACUGUUCCGAGUUAUAACCAAACAAAUAGCUCCAUGGACUUUAGAAAUUAUAUGAUGAGAGAUGAGACUCUGGAACCACUGCCCAAAAACUGGGAAAUGGC	0.828
AAGUAGUUUUAAGCUUGUUUGCACAGUUCUUUUUUCCAUUGGAAAUGGAAUUCAUUGCCUUAGGUCUUUUUAAAUAGUGUAUUAUUAUUGUUGGGGCUGGCUCUAUGCUUGAAAACCAGU	3.59
UAUAUUGUUCAUUUGAUUAAAAUUAUUUAGAUAAGAAAUAUUGCUACGUUCACUUUUAAAUAGCUUUAUCCUGUUUUCCGUUCAUUUUGUAUUUGUUGUGUGUAGUCUCUUAACAUGUCA	0.516

Excerpt of the above (series 3):
Sequence	RBNS enrichment (R)
UGCUUCAUCACCACUUCCAUCUUGCAUCACCUUAUAACUGUUCUGUCUUGUUCUCUCCCAGCAAUUUAUUUUAAAACAAGGGCUAGCUUCAAGCAUGACUGUUAAUGGCU	1.64
GGGGCCAGCAGAAAGAAGACAGGCUGUCCAGGCCGCACCCGCUGCAGUGGGGCACCAGCCGGCCACACCCAUUGCCUCGGCUGCCUCUUCAUAGACUCUUGCUGCCCAGC	0.438
UUCCUCUUUGUGUAGGUUUCAGCCACAAAACUGUCAUUCACUCUAGGGGACCCCUACUAAAGGGUAACUUCAGGUGUGCAGCCCUGAGCUCCAAGGCUCUGCACCAUGCC	0.483
AUAGCCUAAGUGUGUAACAGGCUAUAUACAUAUCAUCAGGGUCUGUGUAAGUAUACUCUGUGAUGUUCAUACAGUGAUGAAAUCACCCAAAGACACAUUUCUCAGAACGU	0.579
